Measured values from different studies.
Protocols differ between the studies behind these lines. ± gives the spread as reported.
lecB: Fucose-binding lectin PA-IIL (lecB, Pseudomonas aeruginosa, UniProt Q9HYN5)
UniProt P00691, sequence (whole entry, looked up): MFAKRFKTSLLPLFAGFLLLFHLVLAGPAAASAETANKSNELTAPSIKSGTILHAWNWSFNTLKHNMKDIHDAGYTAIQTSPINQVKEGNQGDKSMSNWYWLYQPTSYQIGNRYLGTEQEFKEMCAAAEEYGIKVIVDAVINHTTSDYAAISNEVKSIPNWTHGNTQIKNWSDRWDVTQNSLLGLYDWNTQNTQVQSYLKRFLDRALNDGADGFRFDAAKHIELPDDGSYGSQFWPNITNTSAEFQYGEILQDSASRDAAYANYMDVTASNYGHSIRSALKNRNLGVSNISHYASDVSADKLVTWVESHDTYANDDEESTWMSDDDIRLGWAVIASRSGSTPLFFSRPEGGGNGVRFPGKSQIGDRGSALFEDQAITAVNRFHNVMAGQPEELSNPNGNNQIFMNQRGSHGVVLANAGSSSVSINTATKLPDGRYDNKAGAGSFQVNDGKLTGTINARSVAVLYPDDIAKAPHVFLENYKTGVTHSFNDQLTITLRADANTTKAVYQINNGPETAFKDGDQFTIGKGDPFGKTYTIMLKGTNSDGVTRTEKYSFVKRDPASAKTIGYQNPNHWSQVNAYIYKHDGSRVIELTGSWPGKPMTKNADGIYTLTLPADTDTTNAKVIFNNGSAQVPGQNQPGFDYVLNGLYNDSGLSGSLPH
UniProt Q9ESK4, sequence (whole entry, looked up): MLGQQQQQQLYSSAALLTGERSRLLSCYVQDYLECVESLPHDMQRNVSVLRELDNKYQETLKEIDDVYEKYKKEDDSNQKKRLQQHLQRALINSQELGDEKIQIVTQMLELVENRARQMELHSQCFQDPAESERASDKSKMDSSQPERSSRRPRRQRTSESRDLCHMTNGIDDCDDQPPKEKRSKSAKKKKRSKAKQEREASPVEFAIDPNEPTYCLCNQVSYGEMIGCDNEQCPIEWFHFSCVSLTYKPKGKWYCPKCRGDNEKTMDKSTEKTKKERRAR
UniProt Q07741, sequence (whole entry, looked up): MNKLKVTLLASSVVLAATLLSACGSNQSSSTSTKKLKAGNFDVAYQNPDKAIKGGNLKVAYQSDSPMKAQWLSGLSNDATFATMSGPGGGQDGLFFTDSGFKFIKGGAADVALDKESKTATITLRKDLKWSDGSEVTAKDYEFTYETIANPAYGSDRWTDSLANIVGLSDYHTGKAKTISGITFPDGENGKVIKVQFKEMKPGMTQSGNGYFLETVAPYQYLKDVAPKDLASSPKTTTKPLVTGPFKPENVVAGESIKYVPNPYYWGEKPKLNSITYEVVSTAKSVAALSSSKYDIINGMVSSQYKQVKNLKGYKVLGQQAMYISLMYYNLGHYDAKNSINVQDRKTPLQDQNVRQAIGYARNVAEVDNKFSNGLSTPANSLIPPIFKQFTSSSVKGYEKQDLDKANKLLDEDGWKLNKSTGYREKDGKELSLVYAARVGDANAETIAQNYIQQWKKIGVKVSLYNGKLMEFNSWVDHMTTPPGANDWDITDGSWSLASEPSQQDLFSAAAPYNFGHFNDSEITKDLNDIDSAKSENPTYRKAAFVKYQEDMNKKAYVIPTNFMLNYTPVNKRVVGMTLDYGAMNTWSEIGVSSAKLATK
UniProt P10275, sequence (whole entry, looked up): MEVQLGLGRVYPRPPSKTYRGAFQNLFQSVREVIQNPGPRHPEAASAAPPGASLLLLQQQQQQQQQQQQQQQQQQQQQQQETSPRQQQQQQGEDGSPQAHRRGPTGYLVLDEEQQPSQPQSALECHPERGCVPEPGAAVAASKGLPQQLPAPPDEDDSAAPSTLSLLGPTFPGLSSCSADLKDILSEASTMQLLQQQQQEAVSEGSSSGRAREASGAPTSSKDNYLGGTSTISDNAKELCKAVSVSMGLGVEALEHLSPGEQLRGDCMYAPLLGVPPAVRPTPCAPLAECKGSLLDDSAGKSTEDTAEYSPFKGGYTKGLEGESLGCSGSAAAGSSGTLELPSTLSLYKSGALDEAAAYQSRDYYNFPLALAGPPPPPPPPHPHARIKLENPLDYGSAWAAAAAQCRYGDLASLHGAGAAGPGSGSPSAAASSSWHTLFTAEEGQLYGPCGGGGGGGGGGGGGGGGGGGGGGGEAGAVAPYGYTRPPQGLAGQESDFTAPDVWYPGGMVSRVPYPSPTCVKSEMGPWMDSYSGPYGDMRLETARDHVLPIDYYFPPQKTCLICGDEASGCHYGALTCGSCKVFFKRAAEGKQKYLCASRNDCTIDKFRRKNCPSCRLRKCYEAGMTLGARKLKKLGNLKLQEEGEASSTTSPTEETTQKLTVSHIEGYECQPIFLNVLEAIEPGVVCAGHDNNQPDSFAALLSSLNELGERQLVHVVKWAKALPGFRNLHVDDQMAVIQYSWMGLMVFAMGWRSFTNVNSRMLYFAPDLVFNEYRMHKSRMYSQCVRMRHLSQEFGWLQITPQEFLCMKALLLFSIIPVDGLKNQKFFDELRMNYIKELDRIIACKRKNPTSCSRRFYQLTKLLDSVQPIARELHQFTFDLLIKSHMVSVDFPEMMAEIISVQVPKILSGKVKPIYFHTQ
UniProt P11362, sequence (whole entry, looked up): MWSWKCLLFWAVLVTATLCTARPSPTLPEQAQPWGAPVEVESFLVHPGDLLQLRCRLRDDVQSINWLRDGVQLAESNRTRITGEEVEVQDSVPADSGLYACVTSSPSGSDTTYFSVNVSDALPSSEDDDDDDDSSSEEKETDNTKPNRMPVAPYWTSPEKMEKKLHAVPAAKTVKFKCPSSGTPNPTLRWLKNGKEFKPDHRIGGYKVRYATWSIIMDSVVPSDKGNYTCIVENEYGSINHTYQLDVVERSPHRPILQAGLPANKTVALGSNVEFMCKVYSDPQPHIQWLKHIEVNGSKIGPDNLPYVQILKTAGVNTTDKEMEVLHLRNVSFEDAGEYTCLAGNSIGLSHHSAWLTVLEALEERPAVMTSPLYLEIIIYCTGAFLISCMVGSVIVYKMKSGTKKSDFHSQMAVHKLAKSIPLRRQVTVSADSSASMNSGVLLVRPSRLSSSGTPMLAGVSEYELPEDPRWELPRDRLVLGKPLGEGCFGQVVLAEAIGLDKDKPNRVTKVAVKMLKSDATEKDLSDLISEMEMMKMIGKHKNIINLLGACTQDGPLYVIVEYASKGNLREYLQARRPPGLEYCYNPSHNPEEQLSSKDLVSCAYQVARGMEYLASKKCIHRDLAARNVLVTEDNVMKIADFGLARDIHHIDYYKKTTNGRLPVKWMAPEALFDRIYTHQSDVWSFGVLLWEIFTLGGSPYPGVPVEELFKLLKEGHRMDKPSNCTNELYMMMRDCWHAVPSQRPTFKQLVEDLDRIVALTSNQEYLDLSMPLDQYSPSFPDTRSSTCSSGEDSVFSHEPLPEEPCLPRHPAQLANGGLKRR
UniProt P25440, sequence (whole entry, looked up): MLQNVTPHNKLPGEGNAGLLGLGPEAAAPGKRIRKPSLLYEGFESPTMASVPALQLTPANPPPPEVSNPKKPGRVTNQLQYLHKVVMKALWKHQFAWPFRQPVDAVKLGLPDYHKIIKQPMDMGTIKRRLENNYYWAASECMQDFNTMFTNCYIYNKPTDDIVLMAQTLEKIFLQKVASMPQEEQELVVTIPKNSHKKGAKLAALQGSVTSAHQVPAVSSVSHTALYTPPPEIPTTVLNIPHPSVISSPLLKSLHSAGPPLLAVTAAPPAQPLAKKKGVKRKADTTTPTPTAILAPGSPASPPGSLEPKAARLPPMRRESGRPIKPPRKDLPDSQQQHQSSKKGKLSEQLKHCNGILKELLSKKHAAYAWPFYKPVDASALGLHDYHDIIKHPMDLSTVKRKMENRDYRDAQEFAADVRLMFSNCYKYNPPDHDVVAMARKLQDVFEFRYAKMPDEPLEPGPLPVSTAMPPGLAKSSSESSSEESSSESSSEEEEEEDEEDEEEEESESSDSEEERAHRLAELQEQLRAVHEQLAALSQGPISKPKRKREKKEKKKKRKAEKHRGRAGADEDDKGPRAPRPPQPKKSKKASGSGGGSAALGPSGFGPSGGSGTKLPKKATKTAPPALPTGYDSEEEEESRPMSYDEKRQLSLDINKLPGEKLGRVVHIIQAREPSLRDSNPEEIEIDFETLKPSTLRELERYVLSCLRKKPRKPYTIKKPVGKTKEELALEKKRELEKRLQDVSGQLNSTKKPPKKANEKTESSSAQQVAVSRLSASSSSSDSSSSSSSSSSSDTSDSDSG
UniProt Q9HB29, sequence (whole entry, looked up): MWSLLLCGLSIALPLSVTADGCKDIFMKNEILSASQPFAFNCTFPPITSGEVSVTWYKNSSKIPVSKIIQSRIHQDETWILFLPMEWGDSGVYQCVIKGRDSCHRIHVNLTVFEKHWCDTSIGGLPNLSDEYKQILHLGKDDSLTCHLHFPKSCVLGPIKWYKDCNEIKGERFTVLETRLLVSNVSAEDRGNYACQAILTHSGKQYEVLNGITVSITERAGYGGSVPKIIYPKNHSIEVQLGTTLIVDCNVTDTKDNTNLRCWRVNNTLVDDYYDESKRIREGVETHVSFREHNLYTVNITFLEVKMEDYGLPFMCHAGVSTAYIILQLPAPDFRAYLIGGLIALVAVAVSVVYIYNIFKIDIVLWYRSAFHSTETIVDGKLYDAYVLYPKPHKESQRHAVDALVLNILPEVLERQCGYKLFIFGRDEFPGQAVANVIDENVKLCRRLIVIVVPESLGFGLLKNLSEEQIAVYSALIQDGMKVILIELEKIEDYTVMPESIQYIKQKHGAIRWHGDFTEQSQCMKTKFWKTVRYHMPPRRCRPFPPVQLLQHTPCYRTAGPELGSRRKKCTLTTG

O=C(O)/C=C/c1ccccc1
Kd (PAL1 (Petroselinum crispum, UniProt P24481, Y110F); ITC; pH 8.0, 30 °C): 16600 nM

N=C(N)NCCC[C@H](NC(=O)[C@H](Cc1ccccc1)NC(=O)[C@@H]1CCCN1C(=O)[C@H](CO)NC(=O)[C@H](Cc1ccccc1)NC(=O)CNC(=O)[C@@H]1CCCN1C(=O)[C@@H]1CCCN1C(=O)[C@@H](N)CCCNC(=N)N)C(=O)N[C@@H](CCCCNS(=O)(=O)c1ccc(C2=c3cc4c5c(c3Oc3c2cc2c6c3CCCN6CCC2)CCC[N+]=5CCC4)c(S(=O)(=O)[O-])c1)C(=O)O
Kd (Oligopeptide-binding protein OppA (oppA, Lactococcus lactis subsp. lactis, UniProt Q07741); binding, fluorescence anisotropy; pH 6.5, 18 °C, with: dye-labelled peptide): 13000 ± 500 nM

CC[C@H](C)[C@H](NC(=O)[C@H](Cc1c[nH]cn1)NC(=O)[C@H](CCCCNC(=O)[C@@H](NC(=O)[C@H](CCCCN)NC(=O)CSC[C@H](NC(=O)[C@H](Cc1ccccc1)NC(=O)[C@H](CCCCNC(=O)[C@H](CC(C)C)NC(=O)[C@@H]1CCCN1C(=O)[C@H](CCCCN)NC(=O)CCS[C@@H]1O[C@H](CO)[C@H](O)[C@H](O)[C@H]1O)NC(=O)[C@H](CC(C)C)NC(=O)[C@@H]1CCCN1C(=O)[C@H](CCCCN)NC(=O)C[C@@H]1O[C@@H](C)[C@@H](O)[C@@H](O)[C@@H]1O)C(N)=O)[C@@H](C)CC)NC(=O)[C@@H](NC(=O)[C@H](CCCCN)NC(=O)CSC[C@H](NC(=O)[C@H](Cc1ccccc1)NC(=O)[C@H](CCCCNC(=O)[C@H](CC(C)C)NC(=O)[C@@H]1CCCN1C(=O)[C@H](CCCCN)NC(=O)CCS[C@@H]1O[C@H](CO)[C@H](O)[C@H](O)[C@H]1O)NC(=O)[C@H](CC(C)C)NC(=O)[C@@H]1CCCN1C(=O)[C@H](CCCCN)NC(=O)C[C@@H]1O[C@@H](C)[C@@H](O)[C@@H](O)[C@@H]1O)C(N)=O)[C@@H](C)CC)C(N)=O
Kd (lecB; binding, ITC; pH 7.5): 179 nM

CCOC(=O)Nc1ccc2c(c1)CN1C(=S)N(c3ccc(C#N)c(C(F)(F)F)c3)C(=O)C1C2 (stereo not drawn)
Kd (Androgen receptor (AR, Homo sapiens, UniProt P10275); binding, SPR): 558 nM

Nc1c(C(=O)Nc2ccncc2)sc2nc(-c3cccc(C(F)(F)F)c3)ccc12
Kd (HIV-1 TAR RNA hairpin, 2-AP at U25; binding, 2-aminopurine fluorescence titration; PBS; pH 7.4, with: 2-AP TAR RNA 500 nM): 230 ± 20 nM

CC[C@H](C)[C@@H]1NC(=O)[C@@H]2CCCN2C(=O)[C@@H](NC(=O)[C@H](C)NC(=O)[C@H](CCSC)NC(C)=O)CSCc2cc3cc(c2)CSC[C@@H](C(=O)N[C@@H](Cc2ccc(O)cc2)C(=O)NCC(=O)N[C@@H](CO)C(=O)NCC(=O)N[C@@H](CO)C(=O)NCC(=O)N[C@@H](CO)C(=O)N[C@@H](CC(=O)O)C(=O)N[C@@H](Cc2ccc(O)cc2)C(=O)N[C@@H](CCCCN)C(=O)N[C@@H](CC(=O)O)C(=O)N[C@@H](CC(=O)O)C(=O)N[C@@H](CC(=O)O)C(=O)N[C@@H](CC(=O)O)C(=O)N[C@@H](CCCCN)C(N)=O)NC(=O)[C@H](Cc2ccc(O)cc2)NC(=O)[C@H](CCCNC(=N)N)NC(=O)[C@H](CC(C)C)NC(=O)[C@H]([C@@H](C)O)NC(=O)[C@H](CC(N)=O)NC(=O)[C@H]([C@@H](C)O)NC(=O)[C@H](CSC3)NC(=O)CNC1=O
Kd (FGFR1 (Homo sapiens, UniProt P11362); binding, BLI): > 10000 nM

CC(C)C[C@H](NC(=O)[C@@H]1CCCN1C(=O)[C@H](CCCCN)NC(=O)C[C@@H]1O[C@@H](C)[C@@H](O)[C@@H](O)[C@@H]1O)C(=O)NCCCC[C@H](NC(=O)[C@H](CC(C)C)NC(=O)[C@@H]1CCCN1C(=O)[C@H](CCCCN)NC(=O)C[C@@H]1O[C@@H](C)[C@@H](O)[C@@H](O)[C@@H]1O)C(=O)N[C@@H](Cc1ccccc1)C(=O)N[C@@H](CS)C(N)=O
Kd (lecB; binding, ITC; pH 7.5): 300 nM

CC(C)P(=[Se])(NP(=[Se])(C(C)C)C(C)C)C(C)C
Kd (Alpha-amylase (Bacillus subtilis, UniProt P00691); fluorescence quenching; 310 K): 165800 ± 825 nM

CC(C)[C@@H]1NC(=O)[C@H](Cc2ccccc2)NC(=O)CSC[C@@H](C(N)=O)NC(=O)[C@H](CCC(=O)O)NC(=O)[C@H](CO)NC(=O)[C@H](Cc2c[nH]c3ccccc23)NC(=O)[C@H](C(C)C)NC(=O)[C@H](C(C)C)NC(=O)[C@H](Cc2ccc(O)cc2)NC(=O)[C@H](CC(=O)O)NC(=O)[C@H](Cc2c[nH]c3ccccc23)NC(=O)[C@H](Cc2ccc(O)cc2)NC(=O)[C@H](Cc2c[nH]c3ccccc23)NC(=O)[C@H](CCC(=O)O)NC1=O
Kd (Interleukin-1 receptor-like 2, D1-D3 domains (IL1RL2, Homo sapiens, UniProt Q9HB29); SPR; IL-36R D1-D3): 1100 nM

CC[C@H](C)[C@H](NC(=O)[C@H](CCC(=O)O)NC(=O)[C@H](CCC(=O)O)NC(=O)[C@H](CC(C)C)NC(=O)[C@H](CC(C)C)NC(=O)[C@H](CCSC)NC(=O)[C@]1(C)CCCC=CCCC[C@](C)(NC(=O)[C@H](CC(N)=O)NC(=O)[C@H](CCC(=O)O)NC(=O)[C@@H]2CCCN2C(=O)[C@H](CC(=O)O)NC(=O)[C@H](CC(N)=O)NC(=O)[C@H](CC(=O)O)NC(=O)[C@H](CC(=O)O)NC(=O)[C@@H](N)CO)C(=O)N[C@@H]([C@@H](C)CC)C(=O)N[C@@H](C)C(=O)N[C@@H](CCCCN)C(=O)N1)C(=O)N[C@@H](CCCCN)C(=O)N[C@@H](C)C(=O)N[C@@H](CC(N)=O)C(=O)N[C@@H](CC(C)C)C(=O)N[C@@H](CO)C(=O)O
Kd (Death domain-associated protein 6 (Homo sapiens, UniProt Q9UER7); binding, ITC; pH 7.5): 90 nM

CC(=O)N[C@@H](CCCCN)C(=O)N[C@H](C(=O)NCC(=O)N[C@@H](CC(=O)O)C(=O)N[C@@H](CCC(=O)O)C(=O)N[C@@H](CCCCN)C(=O)N[C@@H](CCCCN)C(=O)NCC(=O)NCC(=O)N[C@@H](Cc1ccc(O)cc1)C(=O)NCC(=O)N[C@@H](CCCNC(=N)N)C(=O)N[C@@H](CCCCN)C(=O)N[C@@H](CCCCN)C(=O)N[C@@H](CCCNC(=N)N)C(=O)N[C@@H](CCCNC(=N)N)C(=O)N[C@@H](CCC(N)=O)C(=O)N[C@@H](CCCNC(=N)N)C(=O)N[C@@H](CCCNC(=N)N)C(=O)N[C@@H](CCCNC(=N)N)C(N)=O)[C@@H](C)O
Kd (HSP90AA1 (Homo sapiens, UniProt P07900); binding, field-effect biosensor; pH 7.4): 342000 ± 25300 nM

CC[C@H](C)[C@H](NC(=O)[C@@H]1CCCN1C(=O)[C@H](CCCCN)NC(=O)[C@H](CO)NC(=O)[C@H](CO)NC(=O)[C@H](Cc1ccc(O)cc1)NC(=O)[C@H](CO)NC(=O)[C@H](C)NC(=O)[C@H](CO)NC(=O)[C@@H](N)Cc1ccccc1)C(=O)N[C@@H](CCC(N)=O)C(=O)N[C@H](C(=O)N[C@@H](CCC(N)=O)C(=O)N[C@H](C(=O)N[C@@H](CO)C(=O)N[C@@H](CC(N)=O)C(=O)NCC(=O)N[C@@H](CCSC)C(=O)N[C@@H](CC(=O)O)C(=O)N[C@@H](CC(N)=O)C(=O)N[C@@H](C)C(=O)N[C@@H](CO)C(=O)N[C@@H](C)C(=O)N1CCC[C@H]1C(=O)N[C@H](C(=O)O)C(C)C)C(C)C)[C@@H](C)O
Kd (Peptide cyclase 1 (Gypsophila vaccaria, UniProt R4P353, S562A)): 136 ± 19 nM

C[C@H](N)C(=O)N[C@@H](CCCNC(=N)N)C(=O)N[C@H](C(=O)N[C@@H](CCCC[N+](C)(C)C)C(=O)N[C@@H](CCC(N)=O)C(=O)N[C@H](C(=O)N[C@@H](C)C(=O)N[C@@H](CCCNC(=N)N)C(=O)N[C@@H](CCCCN)C(=O)N[C@@H](CO)C(=O)N[C@H](C(=O)NCC(N)=O)[C@@H](C)O)[C@@H](C)OP(=O)(O)O)[C@@H](C)O
Kd (Inhibitor of growth protein 2, PHD finger (Ing2, Mus musculus, UniProt Q9ESK4); binding, isothermal titration calorimetry; pH 7.2): 19900 nM

CCC(C(=O)OC)C1N=C(c2ccc(Cl)cc2)c2cc(OC)ccc2-n2c(C)nnc21 (stereo not drawn)
Kd (Bromodomain-containing protein 2, BD2 (BRD2, Homo sapiens, UniProt P25440); binding, ITC): 17000 nM

CC(C)C[C@H](NC(=O)[C@@H](NC(=O)[C@H](C)NC(=O)[C@H](CCCNC(=N)N)NC(=O)[C@H](CC(=O)O)NC(=O)[C@H](CC(=O)O)NC(=O)[C@H](Cc1ccc(O)cc1)NC(=O)[C@H](CCCNC(=N)N)NC(=O)[C@H](Cc1c[nH]cn1)NC(=O)[C@@H](N)CC(C)C)[C@@H](C)O)C(=O)N[C@@H](C)C(=O)N[C@@H](CC(N)=O)C(=O)O
Kd (Gamma-enolase (ENO2, Homo sapiens, UniProt P09104); biolayer interferometry): 29 nM

A few entries again:
C[C@H](N)C(=O)N[C@@H](CCCNC(=N)N)C(=O)N[C@H](C(=O)N[C@@H](CCCC[N+](C)(C)C)C(=O)N[C@@H](CCC(N)=O)C(=O)N[C@H](C(=O)N[C@@H](C)C(=O)N[C@@H](CCCNC(=N)N)C(=O)N[C@@H](CCCCN)C(=O)N[C@@H](CO)C(=O)N[C@H](C(=O)NCC(N)=O)[C@@H](C)O)[C@@H](C)OP(=O)(O)O)[C@@H](C)O
Kd (Inhibitor of growth protein 2, PHD finger (Ing2, Mus musculus, UniProt Q9ESK4); binding, isothermal titration calorimetry; pH 7.2): 19900 nM
